Published values gathered from unrelated publications.
A part holds a random share of what one study measured. Changes are numbered by the printed parent chain.

Series 1 — technique: RNA Bind-n-Seq; molecule type: RNA; medium: in vitro; tested at: 100 nM; baseline: input RNA pool; direction: higher = stronger binding
Target: RING finger protein unkempt homolog, zinc fingers 1-6, SBP tag (UNK, Homo sapiens, UniProt Q9C0B0, residues 30-357)
UniProt Q9C0B0, sequence (30-357, looked up): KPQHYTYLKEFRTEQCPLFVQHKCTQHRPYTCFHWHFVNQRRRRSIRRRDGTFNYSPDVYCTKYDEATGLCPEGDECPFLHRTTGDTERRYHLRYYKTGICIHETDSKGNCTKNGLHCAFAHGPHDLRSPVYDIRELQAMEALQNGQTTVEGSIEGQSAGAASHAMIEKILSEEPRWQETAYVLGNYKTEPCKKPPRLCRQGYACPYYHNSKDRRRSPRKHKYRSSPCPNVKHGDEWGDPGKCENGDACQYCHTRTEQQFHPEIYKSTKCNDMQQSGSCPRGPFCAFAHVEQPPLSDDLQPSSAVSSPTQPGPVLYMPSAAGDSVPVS
Setting: RNA with constant flanks, vertebrate orthologous sites, ends assumed
Oligonucleotide | bound/input enrichment
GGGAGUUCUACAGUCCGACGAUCCUGUUGUUAAGCACUGUGUUCCAGACCGUGUCUGACUUUAGUGUAACCUAGGAGAGUUUAUAGUUUUAUUUUAAUGAAACCCUCAUUGGCACGGAGCAGUGGGAAAAAGCAGUGUCUCUCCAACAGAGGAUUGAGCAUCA | 0.958 ratio
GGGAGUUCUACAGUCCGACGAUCUUGGGACCAACUCUCCAAAUAGGAAUAGUAAUAAAAAAAAUAAGCAAAAUGAUAUUUGUAUAGAAAAAACAGAAGUUAAAUCAUGUAAAGUAAAUGCUGCCAGUGUUCCAGGCCCUAAAGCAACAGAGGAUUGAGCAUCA | 3.26 ratio
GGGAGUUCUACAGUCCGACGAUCAUUUAAAAUGUAGUUAGUUAUAUUUAAUGACCUCAUUCCUAAGUUCCUUUUUCGUUAAUGUAGCUUUCAUUUCUGUUAUUGCUGUUUGAGUAAUAUGAUUAAAUAGAAGGUUUGUGCCAGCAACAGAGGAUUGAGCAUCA | 0.426 ratio
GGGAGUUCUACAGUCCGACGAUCCAUAUCCUUGUUACUGUGAUAUUUAAAAUAUCCACAGUACUCACUUUUUCCAGAUGACUUUGGUAAUUGCCUAGAAAUAUCUUUCUCUUACCUGUUAUUUAUCAAUUUUUCCCAGUAUUUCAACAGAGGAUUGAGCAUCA | 0.609 ratio
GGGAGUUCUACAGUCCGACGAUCGCUGUUAAUGCACUGUUAUACCAGGCAUUGUCUGAAGUUAGUGUAAUCUAGAAGAUUUUAUAGUUUUAUUUUAAUGAAGUAUGAAUUGAAGCAAAGCUGUUAGGAGUAUGUAGUCUUUUACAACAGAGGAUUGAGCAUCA | 2.11 ratio
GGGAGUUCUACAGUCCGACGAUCUAAAAUCUGGAUCUUGGAACCAAACCAAGGGGUUUGGAAGUAAAGAAAUUUGUAAAGUCCCAGCCCACGCAGCUGCACAGCACACCACCGCUGGCUGCUGUGUUCAGGUGUUUAUGGCAGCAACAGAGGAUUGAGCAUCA | 0.121 ratio
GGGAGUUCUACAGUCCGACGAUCUGCCCCCCACCCCAUGGGAGGGAGUGGGGGAACUCAGGAUGACCCUCAACUGUUCCAAUCCAGUAUUUUUUUUUCUUUUUUUAAAUUACUGUAUUUAUUAUGACGAUGGUGACUCCCCGGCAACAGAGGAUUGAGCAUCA | 0.893 ratio
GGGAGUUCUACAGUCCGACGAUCAAUAAUGAAUAGUAUUAAAGAAACAUUCUCGUCUUCCUUUACCUUUAAUCCCUUAAUACCUAGUCUACUUUUUAAAUUUUCAGACUUCACUGCUUUUUGAAUUCAUAAUUCUAAUUUUCACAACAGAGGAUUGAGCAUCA | 2.11 ratio
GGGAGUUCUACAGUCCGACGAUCUUCAGGCACAACUGACUGGUUCACAGCACUCCUUACAUAGUUAUCUAUCAAAUUCAAGUGUAGUUAAUUUUCAGGAAACAACCAGGCAGUCUUUAUCCUGUAGCCCAAUUGGAGAUUCCACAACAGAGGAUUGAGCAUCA | 1.57 ratio
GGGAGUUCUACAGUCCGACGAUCGAAUCAUGGCCACUAACAUCUCAGUGGGGCAAGAAGCCUGCUUGGCAUUUCGGUUGGUACGAGAGAGGUGAUCCCUCAUAAAUCUGUUCGUGUUUCUCCUCGUUCUCUCAUAGUCAUCUUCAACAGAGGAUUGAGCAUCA | 0.341 ratio
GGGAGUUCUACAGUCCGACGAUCGCCAAACAAAAAGCCCAGGUUCUAGGUUUCCUUCACUUUAAAUCUAAUUCCACUGUUUAUUUUGUUAAAUUUUUAACUCUUGCAUUUUAGUAAGAAGCAUUUUUUUAUGGAUGCUCAGAUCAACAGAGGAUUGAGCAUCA | 0.677 ratio

Series 2 — target: CCND3, cyclin fold, Cln2 fusion (human); technique: yeast growth competition, sequencing; medium: yeast; setting: weak parent motif; baseline: not given; direction: higher = stronger binding
Parent: RBL2 docking peptide (human); STTRRRLFVENDS
Substitution | normalised enrichment score
R6D | 0.139
D12C | 0.066
R6T | 0.109
T3D | 0.159
E10D | 0.206
R5A | -0.00239
T3E | 0.0946
F8W | 0.104
R6Q | 0.18
R6G | 0.0682
T2F | 0.0445
V9K | 0.133
V9S | 0.183
D12N | 0.101
R6M | 0.101
R5C | 0.1
N11Q | 0.108
T2E | 0.127

Series 3 — technique: RNA Bind-n-Seq; molecule type: RNA; medium: in vitro; tested at: 365 nM; baseline: no-protein control; direction: higher = stronger binding
Target: RNA binding protein fox-1 homolog 2, RRM domain, GST-SBP tag (RBFOX2, Homo sapiens, UniProt O43251-10, residues 100-194)
Setting: natural RNA segment, single round, ends assumed
Residues (chain): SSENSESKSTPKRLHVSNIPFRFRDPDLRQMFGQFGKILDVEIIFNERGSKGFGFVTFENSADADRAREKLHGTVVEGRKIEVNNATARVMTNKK
Oligonucleotide | RBNS enrichment (R)
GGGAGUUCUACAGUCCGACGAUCUAAAUUCAGAAGAGUGAUUCUAAAUCUAAAGAAUCAUAUCAUUAAUUAUGUGACAUUGAAACCUGCUGCUGCCGUGAUCUUGAGGAGAGUACAGAUGGGGAGGAAGGUUCUGGAAUUCUCGGGUGCCAA | 0.999
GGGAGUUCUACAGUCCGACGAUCCUGGGUGAGGCUCACCUGCCCAGGACCACAGUGGGACAGCCUGGGCAGGUGGGUGGCACAGCAUAAGAACCCAGCUGGGGCCAGCCCUCCCUGUCCUGGCUGGUCAGUGUUGGAAUUCUCGGGUGCCAA | 0.72
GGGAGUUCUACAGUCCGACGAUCUUUAUGGAAAAUGUUGUCCUGUACUUACUAGGCAAAACGUAUGAAUCGGAUUAACUGGAAAAUAUAUCUGAAUUCAACUGCUGACUAUAAAUGGUAUUCUAAUAAAAUUGUGGAAUUCUCGGGUGCCAA | 0.444
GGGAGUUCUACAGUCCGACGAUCCUUAGUGUGCUCAACUACAGAGAUAGCCGCUGCUGAGUGAUGUAGAUUUUCUACUUGAAUAUUUUUAUGUUGUAGGAACCUCAGGAGGUCAGUGUUUACUGUUUUAUAUAUGGAAUUCUCGGGUGCCAA | 0.551
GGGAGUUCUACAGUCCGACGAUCCAUAGGAAAUACUUGAUUUAAUUACAGGUCCAGGGAUGAGCUGAUGGUUGCUGGAGGAGGCCAGUGUAGAGCCAGUGAGAGAACUAGGAAUGACACUCAGGUUCACUGUGUGGAAUUCUCGGGUGCCAA | 1.01
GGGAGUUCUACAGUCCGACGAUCUCUCGGGGGAACCGGACAGCAGCUUGGCAAAGGCCUCCCUAAAAGGCCGCAUUUCUGACCUGAGCCCCGGGUCUCGGCUGUUUCGAGCCCCGCCUCGGACUUGCCUUCCCUGGAAUUCUCGGGUGCCAA | 0.447
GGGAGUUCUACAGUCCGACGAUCACUGUUCAUAGAACAGGCCGAUUCUGAUUAGAUUUUAUCAGGGAAUCUGUUAAGAUAUGUUUGGUGACCAAAACGUAUGUGUGAAUAUAGUUCUAGCACUUUUAAAUUUUUGGAAUUCUCGGGUGCCAA | 0.616
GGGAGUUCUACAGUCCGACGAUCCUGGCAGGCUGGCCUGGUGCUGCCCCCUUAGCCCAGAAGCCCUGCCAGGUCCAGUGGCCUGGGGUCCCACUGCUGAGGGCACCUGCCAGGCCUCACUCCACCCUGAAUGGUGGAAUUCUCGGGUGCCAA | 0.31
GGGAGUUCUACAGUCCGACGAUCGCAUUUUAUUCACCUGCAAGAUCACAUCCCUAGCUUUGAUUUUGCUUAAAUGAUAGGGACUUAAGAGUGCUGAUUGAAGAAAGAUCCUAUUCUUAGGUCUAACUCGAUUUUGGAAUUCUCGGGUGCCAA | 0.552
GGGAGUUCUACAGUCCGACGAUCAUAGUGCAGGCUUGGGGAGCUUUAAGCCUCAGUUAUAUAACCCACGAAAAACAGAGCCUCCUAGAUGUAACAUUCCUGAUCAAGGUACAAUUCUUUAAAAUUCACUAAUGUGGAAUUCUCGGGUGCCAA | 0.335
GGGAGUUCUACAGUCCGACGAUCGGAAGGCUCCUGGAGGGCAGCCCUACCUCUCCCAUGCCCUUUGCCCUCCUCCCUCGCCUCCAGUGGAGGCUGAGCUGACCCUGGGCUGCUGGAGGCCAGACUGGGCUGUAUGGAAUUCUCGGGUGCCAA | 0.405
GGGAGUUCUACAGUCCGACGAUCGGCUGCCAGAAUCAGCGGAUGCUGGAUGGGCCUGCAGAAACAACACUCACCACACACACUUCCUUCAAAAGACCAAAAGUGACUGGUGUCUCGUGUGACAGAUUGCUUCAUGGAAUUCUCGGGUGCCAA | 0.355

Series 4 — technique: RNA Bind-n-Seq; molecule type: RNA; medium: in vitro; tested at: 200 nM; setting: whole 134-nt RNA, ends assumed; together with: 150 mM LiCl; baseline: input library; direction: higher = stronger binding; library: 7-deaza-guanosine replaces G
Target: Fragile X messenger ribonucleoprotein 1, C-terminal low-complexity region (Fmr1, Mus musculus, UniProt P35922)
Oligonucleotide | log2 enrichment
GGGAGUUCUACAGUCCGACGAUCGCAGGAAGUAAAAACAAAUGGAAAUGCUUCGGAUAGUGGCAGGGGUGGGGGUUUCUAAGGAAAGGGUGGGAUGGGAGUGGGUAAAGAGUUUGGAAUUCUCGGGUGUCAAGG | 1.18
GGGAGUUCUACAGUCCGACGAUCGCAGGAAGUAAAAACAAAUGGAAAUGCUUCGGAUAGUGGCAGGGGUGGGGGUUGCUAAGGAAAGGGAAAGAUGGGAGUGGGUAAAGAGUUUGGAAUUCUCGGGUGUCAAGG | 1.62
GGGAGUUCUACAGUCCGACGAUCCUCAAGUCCUGUGCUACACAUCGUAUGUACCGAAUCGGUUUGGUUUGGUUUGGAAAGUAUUAUGUUACGCCGUUCGGAUCUGCACUUCCAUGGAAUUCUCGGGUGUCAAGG | -0.405
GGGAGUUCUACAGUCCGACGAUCUCAAGUCCUGUGCUACACAUCGUAUGUACCGAAUCGGGAAGGGGAAGGAAGGGGAAAGUAUUAUGUUACGCCGUUCGGAUCUGCACUUCCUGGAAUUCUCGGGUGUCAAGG | -0.765
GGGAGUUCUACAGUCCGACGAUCCACAGACAACACGCACCCACACAGACACAGAGGGAAGGGGUUGGGAUGGGGACAGGGUGCACAGCAAAGCGGGGUAGGACCCCAGCCCCUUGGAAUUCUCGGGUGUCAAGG | 0.241
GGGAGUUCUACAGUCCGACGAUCCCUCAAGUCCUGUGCUACACAUCGUAUGUACCGAAUCGGGGUUGGUUGGUUGGAAAGUAUUAUGUUACGCCGUUCGGAUCUGCACUUCCAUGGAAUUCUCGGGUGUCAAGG | -0.795
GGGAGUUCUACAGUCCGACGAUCUAACUUUAGAGGAGGAUCUGAUGGAUAUGGCAGUGGACGUGGAUUUGGGGUUGGCUAUAAUGGGUAUGGAGGAGGACCUGGAGGUGGCAAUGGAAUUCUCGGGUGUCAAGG | -0.205
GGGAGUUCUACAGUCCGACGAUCCAAGUCCUGUGCUACACAUCGUAUGUACCGAAUCGGGAAAGGGUGGGUUUUUGGGAAAGUAUUAUGUUACGCCGUUCGGAUCUGCACUUCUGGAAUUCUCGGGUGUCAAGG | -1.1
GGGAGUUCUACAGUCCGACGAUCUCAAGUCCUGUGCUACACAUCGUAUGUACCGAAUCGGGGCCGGGCCGGCCGGGGAAAGUAUUAUGUUACGCCGUUCGGAUCUGCACUUCCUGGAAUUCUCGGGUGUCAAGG | 0.511
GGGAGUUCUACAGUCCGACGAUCGCAGGAAGUGAAAACAAAUGGAAAUGCUUCGGAUAGUGGCAGGGGUGGGGGUUGCUAAGGAAAGGGUGGGAUGGGAGUGGGUAAAGAGUUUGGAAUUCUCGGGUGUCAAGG | 1.7
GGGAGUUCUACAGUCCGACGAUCUAACUUUAGAGGAGGAUCUGAUGGAUAUGGCAGUGGGCGUGGAUUUGGGGAUGGCUAUAAUGGGUAUGGAGGAGGACCUGGAGGUGGCAAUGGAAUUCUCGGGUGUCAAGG | 0.55

Mixed results
Substance | target | assay | system | setting | how to read | measurement | value
PhoQ, residues 284 288 289 292 302 303 SMMNNA | PhoP, residues 12 14 15 18 19 NMSSL (Escherichia coli, UniProt P23836) | Sort-seq, measured: YFP reporter | E. coli | PhoQ-PhoP variant library, together with: 10 µM Mg2+ | baseline: high Mg2+ state, higher = stronger signaling | fold induction | 5.68
